Experimental data from different studies.
Parts stem from different laboratories: compare values within a part only.

Study 1
Target: Interferon regulatory factor 3, full length, phosphomimetic (IRF3, Homo sapiens, UniProt Q14653, residues 1-427, S386D/S396D/S398D/S402D/T404D/S405D)
Method: protein-binding microarray
Molecule type: double-stranded DNA, one strand shown
Medium: in vitro
Concentration: 2540 nM top
Setting: 60-bp whole probe
Together with: salmon DNA 0.4 mg/ml
Baseline: random background probes
Direction: higher = stronger binding
All sequences stand within: GCCTAGCAC … GTCTTGATTCGCTTGACGCTGCTG
Construct (chain): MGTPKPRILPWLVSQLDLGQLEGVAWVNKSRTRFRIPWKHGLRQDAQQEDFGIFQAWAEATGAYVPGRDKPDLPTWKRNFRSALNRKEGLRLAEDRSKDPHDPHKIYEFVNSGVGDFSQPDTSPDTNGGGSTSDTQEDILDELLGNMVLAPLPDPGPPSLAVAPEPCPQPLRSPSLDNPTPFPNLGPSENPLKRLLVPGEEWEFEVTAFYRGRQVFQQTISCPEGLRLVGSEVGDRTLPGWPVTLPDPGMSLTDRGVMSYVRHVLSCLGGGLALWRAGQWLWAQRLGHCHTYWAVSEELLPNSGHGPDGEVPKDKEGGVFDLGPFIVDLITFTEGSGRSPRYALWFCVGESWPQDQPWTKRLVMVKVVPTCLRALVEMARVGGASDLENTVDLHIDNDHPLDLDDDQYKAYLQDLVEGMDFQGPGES
Strand | fitted relative affinity [z-score]
TCAAATGCCCTTTTGGTACTGTGCTAG | 1.41
TTAGGTATCCTTATCCTTAAGTGCTAG | 5.71
TGTGCTTTCCTGATGGTTTTGTGCTAG | 1.39
TCAGCTTTCTTTATGCAACTGTGCTAG | 1.27
GACGATTTCGGAACTGGAGACGTGCTA | 3.82
GACGGTCTCGGTATCGCGACGTGCTAG | 1.1
GACGATATCGGGCTTCGAGACGTGCTA | -0.225
GACGATCTCAGTCTCGTGACGTGCTAG | 0.783

Study 2
Target: Histone acetyltransferase KAT6A, winged helix 2, GST fusion (KAT6A, Homo sapiens, UniProt Q92794, residues 85-181)
Method: protein binding microarray
Molecule type: double-stranded DNA, one strand shown
Medium: in vitro
Concentration: not given
Setting: 8-mer, flanks averaged, mean of 2 arrays, mostly near background
Baseline: not given
Direction: higher = stronger binding
Target sequence (chain): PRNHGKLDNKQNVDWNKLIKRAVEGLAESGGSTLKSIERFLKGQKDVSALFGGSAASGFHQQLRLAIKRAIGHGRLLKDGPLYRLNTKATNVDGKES
Strand | E-score
ATTGTGTC | -0.102
CTTACGTA | -0.262
CGCAGACG | 0.173
ACAGGCCG | 0.0508
AATTCTCG | -0.00722
AATGGTGC | 0.00637
CGGGATAA | 0.00644
CGGTTAGC | -0.0407

Study 3
Target: Replicase polyprotein 1ab, polymerase (rep, Severe acute respiratory syndrome coronavirus 2, UniProt P0DTD1)
Observed: enzyme activity
Mode: inhibitor
Concentration: 20 µM
SMILES | inhibition
COC(=O)C1=C(C)NC(C)=C(C(=O)OCCN(C)Cc2ccccc2)C1c1cccc([N+](=O)[O-])c1 (centres unmarked) | 6.24%
Cc1ncccc1OC[C@@H]1CCCN1 | 2.06%
CN[C@@H](C)C(=O)N[C@H](C(=O)N1CCC[C@H]1C(=O)N[C@H]1c2ccccc2C[C@H]1OCC#CC#CCO[C@@H]1Cc2ccccc2[C@@H]1NC(=O)[C@@H]1CCCN1C(=O)[C@@H](NC(=O)[C@H](C)NC)C1CCCCC1)C1CCCCC1 | 7.25%
O=c1ncccn1[C@@H]1O[C@H](CO)[C@@H](O)[C@H]1O | 2.37%
N=C1NC(=O)/C(=C/c2ccc(O)cc2)S1 | 3.43%
O=C(O)c1ccc(CN2CCC(CN[C@@H]3C[C@H]3c3ccccc3)CC2)cc1 | -2.94%
O=C(/C=C/c1ccc(O)c(O)c1)O[C@H](Cc1ccc(O)c(O)c1)C(=O)O | 46.6%
CCCCCCC[N+](CC)(CC)CCCCc1ccc(Cl)cc1 | -9.15%
O=C(O[C@H]1[C@H](OC(=O)c2cccnc2)[C@@H](OC(=O)c2cccnc2)[C@H](OC(=O)c2cccnc2)[C@@H](OC(=O)c2cccnc2)[C@H]1OC(=O)c1cccnc1)c1cccnc1 | -1.2%
COc1cc(C(=O)NCC2(N(C)C)CCCC2)cc(OC)c1OCc1ccccc1 | 3.08%
Cc1ccc(-n2nc(C(C)(C)C)cc2NC(=O)Nc2ccc(OCCN3CCOCC3)c3ccccc23)cc1 | -2.42%
C[C@@]12C(=O)OC(=O)[C@]1(C)[C@H]1CC[C@@H]2O1 | 1.58%
COc1cc2c(cc1OC)-c1c(C)c3ccc(OC)c(OC)c3c[n+]1CC2 | -0.32%
CCCCc1ccc(C(N)=O)nc1 | 1.33%
CC(C)Cn1cnc2c(N)nc3ccccc3c21 | -7.25%
Cc1ccccc1NC(=O)Nc1ccc(CC(=O)N(C)[C@@H](CC(C)C)C(=O)NCC[C@H](NC(=O)[C@@H]2CCCN2S(=O)(=O)c2cc(Cl)cc(Cl)c2)C(=O)O)cc1 | -12.3%
O=C(Nc1c(-c2cccs2)nc2ccccn12)c1ccc(Cl)cc1 | 1.21%
CCCCCCCCC(=O)N[C@H](CN1CCCC1)[C@H](O)c1ccc2c(c1)OCCO2 | -3.51%
CN(C)c1ccccc1CN1CCCN(Cc2ccccc2N(C)C)C1c1ccncc1 | -6.14%
CC[C@H]1OC(=O)C[C@@H](O)[C@H](C)[C@@H](O[C@@H]2O[C@H](C)[C@@H](O[C@H]3C[C@@](C)(O)[C@@H](O)[C@H](C)O3)[C@H](N(C)C)[C@H]2O)[C@@H](CC=O)C[C@@H](C)C(=O)/C=C/C(C)=C/[C@@H]1CO[C@@H]1O[C@H](C)[C@@H](O)[C@@H](OC)[C@H]1OC | -10.9%
Cc1o[nH]c(=O)c1C[C@H](N)C(=O)O | -3.27%

Study 4
Target: RNA binding protein fox-1 homolog 2, RRM domain, GST-SBP tag (RBFOX2, Homo sapiens, UniProt O43251-10, residues 100-194)
Method: RNA Bind-n-Seq
Molecule type: RNA
Medium: in vitro
Concentration: 365 nM
Setting: natural RNA segment, single round, ends assumed
Baseline: no-protein control
Direction: higher = stronger binding
All sequences stand within: GGGAGUUCUACAGUCCGACGAUC … UGGAAUUCUCGGGUGCCAA
Residues (chain): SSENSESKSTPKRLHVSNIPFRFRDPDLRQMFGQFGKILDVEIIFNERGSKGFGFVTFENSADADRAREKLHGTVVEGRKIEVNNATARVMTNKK
Strand | RBNS enrichment (R)
UCCAUGUUGGGAGAUGUUGGGGUAAGCAAUGGAGGCUAUAUCCUCAAGAGCUGUCACAGACAAGUGGCAGAAUACAGGCACCAUGAGCUCAGGUUCUGACAAGGUGCAAA | 0.502
GCAAACACUAGAUAUGCAAAACUGGAUUUUUUUAAUUUAUUUUUUAAAAGAGGGAGGUGUGGUAUAUUAAAAUGAUUUUACUAAGAGAAAAAAAAUAUUUUUUUAAGGAU | 0.612
GCACCCACCUCCUCAUUGGAUGGCUCCCUCCAUGCACUGACCCUCUGCCUGCCUUUGUACCUCACUCACCUCCACCGCUCUCCAGCCCCUCUGAUGGCCACUCAGAGAAU | 4.64
CUGCAACUCCAAACCCAGACUCGCCACUUUGGGUGCACAGGUGGUUAGGUCAGCCAACUGGUUCUGCCUGUCGCCUUGCCACGGAGGAGGCUUCUAAUUAGCUGGAAAAG | 0.278
AGUGGUGCCUCUUCCAGAAGACUCUGGAAGAUUACCUACUUGGGGGUAGGCCUUGGAGGGAAAUCUGUAGGGGUGGGGACCUUCCUACCUUCCUGGCUUGAGAACAGCCC | 0.321
ACUGGGUAGCAGUCUGGCCCUCCUGUCGUCUGGUUGGUGUUGGGGCCUCCAGCCAGGGCCCUCUAGGGGAACCAAGCCUCUGCUCUCACCUGUGGGUUCUUGCCCAUCAG | 0.269
UGCAGAGCUUAGAGGACUGACUGCAUCUUGUUAGGGAAGCAUCUUUGAGAUGCAGAAUUCAUCUUUUUUGGAAUAUUUCCAUGGUGGAGCUCAGUCAUCACACUUCAAGA | 0.584
UUGAGGUACUAAAACUGCAGGUGGGUAUGUCCAUCUCAUCCAUUGUGGCUUGAGACCGGCCUUCAGGAGUCCGCUCUCCAUUUAAACAUCCUUUCUUAUUCAUAGCGCAC | 0.469

Further values, each from its own experiment
Target: Replicase polyprotein 1ab, main protease (rep, Severe acute respiratory syndrome coronavirus 2, UniProt P0DTD1)
Mode: inhibitor
Structure (SMILES) | test | conditions | IC50
S=C=Nc1cccc(NC(=S)NCCCCNC(=S)Nc2cccc(N=C=S)c2)c1 | enzyme activity |  | > 20 µM
NC(Cc1cc(O)c(O)cc1O)C(=O)O (centres unmarked) | fluorogenic substrate cleavage | 60 min preincubation, 37 °C, together with: 1 mM DTT | > 20 µM

Excerpt of the above (further values, each from its own experiment):
Structure (SMILES) | test | conditions | IC50
S=C=Nc1cccc(NC(=S)NCCCCNC(=S)Nc2cccc(N=C=S)c2)c1 | enzyme activity |  | > 20 µM
NC(Cc1cc(O)c(O)cc1O)C(=O)O (centres unmarked) | fluorogenic substrate cleavage | 60 min preincubation, 37 °C, together with: 1 mM DTT | > 20 µM
